Measured values from different studies.
Numbered parts are unrelated; each lists some results of a single study. Several values in a cell are separate wells, animals, samples, runs or records.
Chain of UniProt Q9NSY1 (whole entry, looked up): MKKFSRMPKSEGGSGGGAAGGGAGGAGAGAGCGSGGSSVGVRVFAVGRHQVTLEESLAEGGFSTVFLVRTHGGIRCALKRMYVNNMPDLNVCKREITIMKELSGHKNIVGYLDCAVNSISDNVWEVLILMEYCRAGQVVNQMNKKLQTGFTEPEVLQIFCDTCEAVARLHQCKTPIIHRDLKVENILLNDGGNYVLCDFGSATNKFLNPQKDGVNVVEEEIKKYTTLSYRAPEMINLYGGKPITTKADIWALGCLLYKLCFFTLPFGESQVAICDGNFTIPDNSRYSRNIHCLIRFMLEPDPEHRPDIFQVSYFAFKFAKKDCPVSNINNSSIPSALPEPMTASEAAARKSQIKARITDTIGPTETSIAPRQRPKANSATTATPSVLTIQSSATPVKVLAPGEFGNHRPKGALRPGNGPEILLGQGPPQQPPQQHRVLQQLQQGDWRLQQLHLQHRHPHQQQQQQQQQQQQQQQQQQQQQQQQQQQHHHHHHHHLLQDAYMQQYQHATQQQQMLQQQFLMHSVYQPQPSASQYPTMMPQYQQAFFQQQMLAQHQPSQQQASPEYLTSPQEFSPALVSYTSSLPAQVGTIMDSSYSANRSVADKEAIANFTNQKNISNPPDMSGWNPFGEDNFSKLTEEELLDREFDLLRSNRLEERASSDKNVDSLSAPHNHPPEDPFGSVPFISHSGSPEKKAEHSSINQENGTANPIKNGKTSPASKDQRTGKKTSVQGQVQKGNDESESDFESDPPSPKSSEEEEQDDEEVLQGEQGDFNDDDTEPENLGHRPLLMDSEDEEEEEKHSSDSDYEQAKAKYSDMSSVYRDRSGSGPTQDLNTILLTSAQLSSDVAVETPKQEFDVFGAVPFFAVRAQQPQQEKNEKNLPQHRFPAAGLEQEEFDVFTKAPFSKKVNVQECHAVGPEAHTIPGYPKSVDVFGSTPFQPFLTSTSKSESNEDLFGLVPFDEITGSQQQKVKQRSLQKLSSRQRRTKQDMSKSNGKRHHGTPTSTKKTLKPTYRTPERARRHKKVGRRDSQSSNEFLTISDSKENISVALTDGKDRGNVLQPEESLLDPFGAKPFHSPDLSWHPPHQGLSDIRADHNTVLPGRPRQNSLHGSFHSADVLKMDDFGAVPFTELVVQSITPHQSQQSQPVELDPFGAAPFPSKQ
Chain of UniProt Q9Y6E0 (whole entry, looked up): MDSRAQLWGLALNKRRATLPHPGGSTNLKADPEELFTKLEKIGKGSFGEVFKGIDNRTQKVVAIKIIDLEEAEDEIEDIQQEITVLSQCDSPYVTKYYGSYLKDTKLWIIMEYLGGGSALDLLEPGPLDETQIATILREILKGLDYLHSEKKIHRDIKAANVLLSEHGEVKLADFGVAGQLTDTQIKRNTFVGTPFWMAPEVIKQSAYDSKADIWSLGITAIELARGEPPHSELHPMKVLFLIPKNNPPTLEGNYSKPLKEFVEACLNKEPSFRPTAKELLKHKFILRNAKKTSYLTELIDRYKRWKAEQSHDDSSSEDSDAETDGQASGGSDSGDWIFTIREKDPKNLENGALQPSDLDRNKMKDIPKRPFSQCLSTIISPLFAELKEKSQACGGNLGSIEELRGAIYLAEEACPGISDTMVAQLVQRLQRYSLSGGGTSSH

Series 1
Target: DNA polymerase theta, helicase domain (POLQ, Homo sapiens, UniProt O75417)
Chain of UniProt O75417 (whole entry, looked up): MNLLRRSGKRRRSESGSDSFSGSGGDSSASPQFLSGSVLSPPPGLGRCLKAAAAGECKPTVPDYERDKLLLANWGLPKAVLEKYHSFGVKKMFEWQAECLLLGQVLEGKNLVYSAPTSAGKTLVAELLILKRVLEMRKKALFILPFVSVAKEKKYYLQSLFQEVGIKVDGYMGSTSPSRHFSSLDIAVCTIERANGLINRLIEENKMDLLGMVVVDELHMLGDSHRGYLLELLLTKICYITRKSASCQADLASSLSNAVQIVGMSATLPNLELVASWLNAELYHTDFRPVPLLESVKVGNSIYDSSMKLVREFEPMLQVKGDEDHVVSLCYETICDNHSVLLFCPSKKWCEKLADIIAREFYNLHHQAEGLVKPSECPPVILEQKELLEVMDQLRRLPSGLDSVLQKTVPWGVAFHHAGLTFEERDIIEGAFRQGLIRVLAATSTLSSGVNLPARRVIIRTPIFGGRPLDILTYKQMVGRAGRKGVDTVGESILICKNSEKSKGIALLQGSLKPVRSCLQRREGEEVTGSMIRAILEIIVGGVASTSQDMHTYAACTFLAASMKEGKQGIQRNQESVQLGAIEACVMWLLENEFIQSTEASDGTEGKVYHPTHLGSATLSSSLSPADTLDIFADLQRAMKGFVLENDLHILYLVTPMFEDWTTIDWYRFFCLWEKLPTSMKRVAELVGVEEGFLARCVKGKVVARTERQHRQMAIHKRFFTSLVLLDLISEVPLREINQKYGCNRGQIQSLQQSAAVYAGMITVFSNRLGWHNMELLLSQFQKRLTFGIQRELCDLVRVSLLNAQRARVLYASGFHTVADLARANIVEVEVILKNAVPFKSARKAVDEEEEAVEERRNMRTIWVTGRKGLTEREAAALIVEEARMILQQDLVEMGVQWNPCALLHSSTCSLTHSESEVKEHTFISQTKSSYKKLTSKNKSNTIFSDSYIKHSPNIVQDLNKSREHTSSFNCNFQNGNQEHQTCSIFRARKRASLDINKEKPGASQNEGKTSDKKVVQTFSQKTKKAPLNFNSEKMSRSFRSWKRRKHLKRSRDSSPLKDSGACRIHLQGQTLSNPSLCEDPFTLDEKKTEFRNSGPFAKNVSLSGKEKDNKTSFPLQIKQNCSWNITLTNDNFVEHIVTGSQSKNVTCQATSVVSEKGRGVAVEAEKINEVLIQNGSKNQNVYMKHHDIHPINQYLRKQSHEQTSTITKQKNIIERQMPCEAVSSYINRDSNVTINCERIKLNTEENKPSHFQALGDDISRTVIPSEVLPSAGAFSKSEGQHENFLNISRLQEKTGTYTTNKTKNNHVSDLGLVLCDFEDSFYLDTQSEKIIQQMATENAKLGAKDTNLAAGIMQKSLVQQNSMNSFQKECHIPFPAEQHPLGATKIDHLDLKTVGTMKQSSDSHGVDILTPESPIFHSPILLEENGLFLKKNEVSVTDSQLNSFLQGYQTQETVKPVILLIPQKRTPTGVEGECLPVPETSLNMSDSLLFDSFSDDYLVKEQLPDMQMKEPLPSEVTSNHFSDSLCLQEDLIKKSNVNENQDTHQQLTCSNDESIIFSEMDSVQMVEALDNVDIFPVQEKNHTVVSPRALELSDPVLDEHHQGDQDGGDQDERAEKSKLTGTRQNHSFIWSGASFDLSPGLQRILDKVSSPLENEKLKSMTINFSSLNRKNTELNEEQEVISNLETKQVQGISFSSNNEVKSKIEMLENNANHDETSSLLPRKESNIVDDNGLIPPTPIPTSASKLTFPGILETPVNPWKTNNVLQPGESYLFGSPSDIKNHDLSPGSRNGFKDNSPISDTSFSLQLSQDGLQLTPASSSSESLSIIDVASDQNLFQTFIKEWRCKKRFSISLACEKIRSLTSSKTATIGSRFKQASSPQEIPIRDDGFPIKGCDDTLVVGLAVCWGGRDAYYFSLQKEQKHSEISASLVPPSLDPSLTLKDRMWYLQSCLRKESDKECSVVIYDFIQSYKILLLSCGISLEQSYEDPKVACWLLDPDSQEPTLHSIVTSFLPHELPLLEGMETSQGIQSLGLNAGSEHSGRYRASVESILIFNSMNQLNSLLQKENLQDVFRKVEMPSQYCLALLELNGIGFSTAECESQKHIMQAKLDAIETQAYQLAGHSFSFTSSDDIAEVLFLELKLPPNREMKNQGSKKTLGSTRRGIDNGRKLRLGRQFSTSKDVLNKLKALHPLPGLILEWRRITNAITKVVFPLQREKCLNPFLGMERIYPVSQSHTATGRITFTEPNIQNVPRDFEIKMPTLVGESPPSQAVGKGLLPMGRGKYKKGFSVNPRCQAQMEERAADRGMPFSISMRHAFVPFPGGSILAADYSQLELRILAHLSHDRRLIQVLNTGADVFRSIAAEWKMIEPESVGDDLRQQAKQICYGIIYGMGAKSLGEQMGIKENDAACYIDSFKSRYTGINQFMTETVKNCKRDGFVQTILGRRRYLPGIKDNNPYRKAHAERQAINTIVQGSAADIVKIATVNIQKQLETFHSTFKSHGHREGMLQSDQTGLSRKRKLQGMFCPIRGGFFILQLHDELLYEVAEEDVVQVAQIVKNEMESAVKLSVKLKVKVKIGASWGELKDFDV
Read-out: ATPase activity
Concentration: concentration not given
Notes: with minus without ssDNA
With CCCCCCCCCCC/C=C\C(C)(C)/C=C\CCCC(=O)O the activity difference was 3.63%.
Cc1ccc(C(=O)Nc2ccccc2C(=O)O)cc1S(=O)(=O)N1CCCCCC1 has an activity difference of 4.13%.
The activity difference of Cc1ccc(NC(=O)CSc2ncc(S(=O)(=O)c3ccc(C(C)C)cc3)c(=O)[nH]2)cc1C is reported as 14.8%.
The activity difference of C[C@H]1[C@H](C)CC[C@]2(C(=O)O)CC[C@]3(C)C(=CC[C@@H]4[C@@]5(C)C[C@@H](O)[C@H](O)[C@@](C)(CO)[C@@H]5CC[C@]43C)[C@H]12 is reported as 0.957%.
CCc1ccc(/C=C2/SC(=S)NC2=O)cc1 gave an activity difference of 1.61%.
The activity difference of CC(C)(C)c1ccc(S(=O)(=O)c2cnc(SCC(=O)Nc3ccc4c(c3)OCCO4)[nH]c2=O)cc1 is reported as 7.66%.
For COc1ccc2c(c1)c(CC(=O)O)c(C)n2Cc1ccc(Cl)cc1, the activity difference was 5.2%.
Cc1ccc(C(=O)Nc2ccc(S(=O)(=O)[O-])c3cc(S(=O)(=O)[O-])cc(S(=O)(=O)[O-])c23)cc1NC(=O)c1cccc(NC(=O)Nc2cccc(C(=O)Nc3cc(C(=O)Nc4ccc(S(=O)(=O)[O-])c5cc(S(=O)(=O)[O-])cc(S(=O)(=O)[O-])c45)ccc3C)c2)c1.[Na+].[Na+].[Na+].[Na+].[Na+].[Na+] gave an activity difference of 11.9%.

Series 2
Target: Serine/threonine-protein kinase PAK 2 (PAK2, Homo sapiens, UniProt Q13177)
Chain of UniProt Q13177 (whole entry, looked up): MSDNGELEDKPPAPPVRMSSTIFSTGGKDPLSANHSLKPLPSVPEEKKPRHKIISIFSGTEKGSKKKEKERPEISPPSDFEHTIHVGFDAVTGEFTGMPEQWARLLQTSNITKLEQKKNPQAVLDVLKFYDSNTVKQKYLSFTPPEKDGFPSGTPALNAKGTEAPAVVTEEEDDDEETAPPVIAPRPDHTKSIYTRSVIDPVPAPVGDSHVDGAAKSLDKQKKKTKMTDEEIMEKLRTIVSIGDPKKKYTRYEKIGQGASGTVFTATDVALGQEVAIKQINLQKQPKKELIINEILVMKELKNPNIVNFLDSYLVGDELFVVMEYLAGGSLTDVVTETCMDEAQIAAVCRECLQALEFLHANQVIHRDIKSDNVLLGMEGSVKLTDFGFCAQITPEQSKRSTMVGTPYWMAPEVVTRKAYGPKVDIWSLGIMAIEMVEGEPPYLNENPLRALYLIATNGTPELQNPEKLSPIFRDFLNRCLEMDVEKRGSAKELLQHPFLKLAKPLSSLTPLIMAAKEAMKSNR
Read-out: enzyme activity
Action: inhibitor
Concentration: 0.5 µM
Reference: control
C[S+]([O-])c1ccc(-c2nc(-c3ccncc3)c(-c3ccc(F)cc3)[nH]2)cc1 (stereo not drawn) gave a remaining activity of 78%.
COc1ccc(-c2cnc3c(-c4ccsc4)cnn3c2)cc1 has a remaining activity of 79.1%.
COc1cc2ncc(-c3ccccc3)nc2cc1OC has a remaining activity of 85.6%.
CCOc1cc2ncnc(Nc3cccc(Br)c3)c2cc1OCC gave a remaining activity of 105%.
The remaining activity of Cc1nc(Nc2ncc(C(=O)Nc3c(C)cccc3Cl)s2)cc(N2CCN(CCO)CC2)n1 is reported as 113%.
The remaining activity of CC(C)c1nn(-c2c(Cl)cccc2Cl)c2nc(Cc3ccc(OCCO)cc3)[nH]c(=O)c12 is reported as 95.6%.
For CC(=O)O/N=C1/C(c2c(O)[nH]c3cc(Br)ccc23)=Nc2ccccc21, the remaining activity was 103%.
The remaining activity of O=C(Nc1ccc(Cl)cc1)c1ccccc1NCc1ccncc1 is reported as 91%.
CCC(=O)Nc1ccc2ncnc(Nc3cccc(Br)c3)c2c1 has a remaining activity of 101%.
With O=C1NC(=O)/C(=C/c2ccc3nccnc3c2)S1 the remaining activity was 98.4%.
Cn1cnc2cc3c(Nc4cccc(Br)c4)ncnc3cc21 has a remaining activity of 99.8%.
O=c1cc(N2CCOCC2)oc2c1ccc1ccccc12 has a remaining activity of 103%.
Nc1[nH]nc2nnc(-c3c(-c4ccccc4)nn4ccccc34)cc12 gave a remaining activity of 100%.
The remaining activity of CS(=O)(=O)CCNCc1ccc(-c2ccc3ncnc(Nc4ccc(OCc5cccc(F)c5)c(Cl)c4)c3c2)o1 is reported as 102%.
The remaining activity of CC(C)[C@H](CO)Nc1nc(Nc2cccc(Cl)c2)c2ncn(C(C)C)c2n1 is reported as 103%.
Cc1ccc(NC(=O)c2ccc(CN3CCN(C)CC3)cc2)cc1Nc1nccc(-c2cccnc2)n1 has a remaining activity of 102%.
With Cn1cc(/C=C2\C(=O)Nc3ccc(S(N)(=O)=O)cc32)c2ccccc21 the remaining activity was 79.2%.
CCN1/C(=C/C(C)=O)Sc2ccc(OC)cc21 gave a remaining activity of 105%.
For COc1cc2ncnc(Nc3ccc(OCc4ccccc4)cc3)c2cc1OC, the remaining activity was 102%.
For COc1ccc(Cl)cc1NC(=O)Nc1cc(C)nc2ccccc12, the remaining activity was 97.2%.
COc1cc2ncnc(N3CCN(C(=O)Nc4ccc(Oc5ccccc5)cc4)CC3)c2cc1OC gave a remaining activity of 104%.
For CN(C)CCCn1cc(C2=C(c3c[nH]c4ccccc34)C(=O)NC2=O)c2ccccc21, the remaining activity was 96.2%.

Series 3
Target: Eukaryotic initiation factor 4A-III (Homo sapiens, UniProt P38919)
Chain of UniProt P38919 (whole entry, looked up): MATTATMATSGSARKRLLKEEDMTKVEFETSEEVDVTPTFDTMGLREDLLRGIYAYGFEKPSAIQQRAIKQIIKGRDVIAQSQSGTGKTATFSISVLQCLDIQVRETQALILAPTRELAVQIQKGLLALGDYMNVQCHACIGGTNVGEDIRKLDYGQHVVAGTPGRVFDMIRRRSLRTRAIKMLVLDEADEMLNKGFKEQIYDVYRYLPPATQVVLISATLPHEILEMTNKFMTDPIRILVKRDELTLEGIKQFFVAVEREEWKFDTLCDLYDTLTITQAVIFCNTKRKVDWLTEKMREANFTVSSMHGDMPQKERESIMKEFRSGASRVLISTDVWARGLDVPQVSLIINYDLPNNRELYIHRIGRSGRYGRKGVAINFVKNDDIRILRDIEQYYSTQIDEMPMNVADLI
Read-out: RNA clamping
Method: fluorescence polarization
Concentration: concentration not given
Notes: mean of two replicates
Together with: FAM-labelled poly r(AG)8 RNA
COc1ccc([C@@]23Oc4cc(OC)cc(OC)c4[C@]2(O)[C@H](O)[C@H](C(=O)c2oc4ccccc4c2C)[C@H]3c2ccccc2)cc1 — result for “fluorescence polarization change”: 4.8 mP.
For COC(=O)[C@H]1[C@@H](O)[C@@]2(O)c3c(OC)cc(OS(=O)(=O)c4ccc(C)cc4)cc3O[C@@]2(c2ccc(Br)cc2)[C@@H]1c1ccccc1, “fluorescence polarization change” read 11.9 mP and 6.6 mP.
For COc1ccc([C@@]23Oc4cc(OC)cc(OC)c4[C@]2(O)[C@H](O)[C@H](C(=O)c2ccco2)[C@H]3c2ccc(O)cc2)cc1, “fluorescence polarization change” read 8.4 mP.
COC(=O)[C@@H]1[C@@H](c2ccccc2)[C@]2(c3ccc(OC)cc3)Oc3cc(OC)cc(OC)c3[C@@]23N2CCCC2=N[C@@]13O: “fluorescence polarization change” 9.2 mP.
Under “fluorescence polarization change”, COc1cc(OC)c2c(c1)O[C@@]1(c3ccc(Br)cc3)[C@H](c3ccccc3)C3=C(N[C@@H]4CCCN4C3=O)[C@@]21O is recorded as 37.8 mP.
For COc1ccc([C@@]23Oc4cc(OC)cc(OC)c4[C@]2(O)[C@H](O)[C@H](C(=O)c2ccccc2OC)[C@H]3c2ccccc2)cc1, “fluorescence polarization change” read 7.8 mP.
Under “fluorescence polarization change”, COc1cc(OC)c2c(c1)N(C)[C@]1(c3ccc(Br)cc3)C(=O)[C@@]2(O)[C@H](c2ccccc2)[C@H]1c1ccccc1 is recorded as -0.9 mP.
CCCCN[C@@]12C(=O)[C@H](C(=O)OC)[C@@H](c3ccccc3)[C@]1(c1ccc(OC)cc1)Oc1cc(OC)cc(OC)c12: “fluorescence polarization change” 10.5 mP.

Series 4
SMILES: O=c1nc(-c2ccccn2)sc2ccccc12
Concentration: 1 µM
The remaining binding was 90% (DCLK1 (Homo sapiens, UniProt O15075); binding, competition with immobilised ligand).
NEK11 (Homo sapiens, UniProt Q8NG66); binding, competition with immobilised ligand — remaining binding: 100%.
For EGFR (Homo sapiens, UniProt P00533, del747-752/P753S); cell-free assay, competition with immobilised ligand: remaining binding read 100%.
The remaining binding was 86% (BMP2K (Homo sapiens, UniProt Q9NSY1); binding, competition with immobilised ligand).
The remaining binding was 92% (LRRK2 (Homo sapiens, UniProt Q5S007, G2019S); binding, competition with immobilised ligand).
For KIT (Homo sapiens, UniProt P10721); binding, competition with immobilised ligand: remaining binding read 79%.
For MAPK7 (Homo sapiens, UniProt Q13164); binding, competition with immobilised ligand: remaining binding read 100%.
The remaining binding was 97% (DCLK2 (Homo sapiens, UniProt Q8N568); binding, competition with immobilised ligand).
FLT3 (Homo sapiens, UniProt P36888, D835Y); binding, competition with immobilised ligand — remaining binding: 100%.
For STK24 (Homo sapiens, UniProt Q9Y6E0); binding, competition with immobilised ligand: remaining binding read 100%.
The remaining binding was 100% (CAMK2B (Homo sapiens, UniProt Q13554); cell-free assay, competition with immobilised ligand).
The remaining binding was 74% (FLT3 (Homo sapiens, UniProt P36888, D835H); binding, competition with immobilised ligand).
The remaining binding was 98% (BMX (Homo sapiens, UniProt P51813); binding, competition with immobilised ligand).
For MAPK10 (Homo sapiens, UniProt P53779); binding, competition with immobilised ligand: remaining binding read 100%.
It gave 95% for remaining binding (Macrophage colony-stimulating factor 1 receptor, autoinhibited (CSF1R, Homo sapiens, UniProt P07333); cell-free assay, competition with immobilised ligand).
The remaining binding was 84% (LIM domain kinase 1 (LIMK1, Homo sapiens, UniProt P53667); binding, competition with immobilised ligand).
The remaining binding was 75% (STK4 (Homo sapiens, UniProt Q13043); binding, competition with immobilised ligand).
For MAPK6 (Homo sapiens, UniProt Q16659); binding, competition with immobilised ligand: remaining binding read 73%.
It gave 95% for remaining binding (SIK1 (Homo sapiens, UniProt P57059); competition binding).
The remaining binding was 100% (PRKG1 (Homo sapiens, UniProt Q13976); binding, competition with immobilised ligand).
The remaining binding was 82% (MERTK (Homo sapiens, UniProt Q12866); binding, competition with immobilised ligand).
For KDR (Homo sapiens, UniProt P35968); cell-free assay, competition with immobilised ligand: remaining binding read 100%.
The remaining binding was 91% (MAPK1 (Homo sapiens, UniProt P28482); binding, competition with immobilised ligand).
For Myosin-IIIb (MYO3B, Homo sapiens, UniProt Q8WXR4); binding, competition with immobilised ligand: remaining binding read 79%.
ERBB4 (Homo sapiens, UniProt Q15303); binding, competition with immobilised ligand — remaining binding: 96%.

Excerpt of the above (series 4):
The remaining binding was 74% (FLT3 (Homo sapiens, UniProt P36888, D835H); binding, competition with immobilised ligand).
The remaining binding was 98% (BMX (Homo sapiens, UniProt P51813); binding, competition with immobilised ligand).
For MAPK10 (Homo sapiens, UniProt P53779); binding, competition with immobilised ligand: remaining binding read 100%.
It gave 95% for remaining binding (Macrophage colony-stimulating factor 1 receptor, autoinhibited (CSF1R, Homo sapiens, UniProt P07333); cell-free assay, competition with immobilised ligand).
The remaining binding was 84% (LIM domain kinase 1 (LIMK1, Homo sapiens, UniProt P53667); binding, competition with immobilised ligand).
The remaining binding was 75% (STK4 (Homo sapiens, UniProt Q13043); binding, competition with immobilised ligand).
For MAPK6 (Homo sapiens, UniProt Q16659); binding, competition with immobilised ligand: remaining binding read 73%.
It gave 95% for remaining binding (SIK1 (Homo sapiens, UniProt P57059); competition binding).
The remaining binding was 100% (PRKG1 (Homo sapiens, UniProt Q13976); binding, competition with immobilised ligand).
